Literature values as cited in several papers.
Chain of UniProt Q16512 (whole entry, looked up): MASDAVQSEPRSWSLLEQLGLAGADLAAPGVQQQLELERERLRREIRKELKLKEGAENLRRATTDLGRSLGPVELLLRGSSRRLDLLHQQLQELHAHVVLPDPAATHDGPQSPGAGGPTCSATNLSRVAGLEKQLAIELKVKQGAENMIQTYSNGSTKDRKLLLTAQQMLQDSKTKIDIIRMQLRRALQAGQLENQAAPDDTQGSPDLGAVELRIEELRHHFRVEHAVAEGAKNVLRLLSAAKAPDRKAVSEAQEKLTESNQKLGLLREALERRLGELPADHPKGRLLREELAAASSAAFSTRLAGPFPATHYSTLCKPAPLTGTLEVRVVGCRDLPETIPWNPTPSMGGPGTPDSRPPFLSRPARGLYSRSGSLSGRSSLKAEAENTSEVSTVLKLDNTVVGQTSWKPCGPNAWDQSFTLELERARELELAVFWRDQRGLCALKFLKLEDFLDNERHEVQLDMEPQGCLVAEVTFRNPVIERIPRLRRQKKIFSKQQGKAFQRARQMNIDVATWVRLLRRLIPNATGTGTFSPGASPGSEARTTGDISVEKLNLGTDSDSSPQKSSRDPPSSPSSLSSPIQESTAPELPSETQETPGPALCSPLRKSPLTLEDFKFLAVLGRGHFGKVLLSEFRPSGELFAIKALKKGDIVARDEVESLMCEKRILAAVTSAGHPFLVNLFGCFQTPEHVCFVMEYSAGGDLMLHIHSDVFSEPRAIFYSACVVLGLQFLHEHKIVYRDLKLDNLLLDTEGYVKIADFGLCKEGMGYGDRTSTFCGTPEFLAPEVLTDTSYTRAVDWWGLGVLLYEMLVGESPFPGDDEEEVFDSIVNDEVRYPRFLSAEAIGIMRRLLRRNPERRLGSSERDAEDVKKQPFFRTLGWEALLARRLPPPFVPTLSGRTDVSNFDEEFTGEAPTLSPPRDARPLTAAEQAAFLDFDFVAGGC

| SMILES | target or system | test | test system | setting | scale | quantity | value |
| --- | --- | --- | --- | --- | --- | --- | --- |
| CC(=O)/N=c1/sc(S(N)(=O)=O)nn1C | – | refers to: sulfonamide group | – | – | – | pKa | 7.1 |
| CCCCCCCC(=O)O | – | literature value | – | vs non-fluorinated acids | – | pKa | 4.76 |
| C=CC(=O)Nc1cc(Nc2nccc(-c3cn(C)c4ccccc34)n2)c(OCC(F)(F)F)nc1N(C)CCN(C)C | – | – | – | basic group | – | pKa | 8.69 |
| NS(=O)(=O)c1cc2c(cc1Cl)N=CNS2(=O)=O | – | – | – | – | – | pKa | 6.85 |
| Cc1nn(C)cc1S(=O)(=O)NC(=O)c1ccc(-n2ccc(OCC(C)(C)C(F)(F)F)n2)nc1N1C[C@@H](C)CC1(C)C | – | – | – | monoprotic acid | – | pKa | 5.04 |
| CC(O)C(C)n1ncn(-c2ccc(N3CCN(c4ccc(OCC5COC(Cn6cncn6)(c6ccc(Cl)cc6Cl)O5)cc4)CC3)cc2)c1=O (stereo not shown) | – | – | – | basic group | – | pKa | 3.7 |
| Cn1cncc1[C@@](N)(c1ccc(Cl)cc1)c1ccc2c(c1)c(-c1cccc(Cl)c1)cc(=O)n2C | – | – | – | ionisation site 2 | – | pKa | 3.3 |
| Nc1ncccn1 | – | – | – | literature value | – | pKa | ~3.5 |
| O=C(O)C(F)(F)F | – | differential refractometry, literature value | – | – | – | pKa | 1.1 |
| O=C(NO)c1ccccc1 | – | – | – | hydroxamic acid | – | pKa | 8.85 |
| C=C(C)C(=O)O | – | – | – | – | – | pKa | ~4 |
| Cc1ccc(C)c(OCCCC(C)(C)C(=O)O[C@@H]2O[C@H](C(=O)O)[C@@H](O)[C@H](O)[C@H]2O)c1 | – | – | – | monoprotic acid | – | pKa | 3.23 |
| CC1(C)C[C@@H]1C(=O)N/C(=C\CCCCSC[C@H](N)C(=O)O)C(=O)O | – | – | – | – | – | pKa | 2.1 |
| Nc1cc(C(F)(F)F)c(-c2nc(N3CCOCC3)nc(N3CCOCC3)n2)cn1 | Serine/threonine-protein kinase N1 (PKN1, Homo sapiens, UniProt Q16512) | enzyme activity | – | 10 µM | baseline: untreated | remaining activity | 73% |
| O=C1CN(/N=C/c2ccc([N+](=O)[O-])o2)C(=O)N1 | – | – | – | – | – | pKa | ~7.2 |
| CCCCNC(=O)NS(=O)(=O)c1ccc(C)cc1 | – | NMR | phospholipid bilayer membrane | – | – | pKa | ~7 |
| C=C(C)C(=O)OCCN | – | – | – | – | – | pKa | ~9 |
| Cc1ncc(CO)c(C(=O)O)c1O | – | – | – | – | – | pKa | 5.4 |
| N[C@@H](CC(=O)N1CCn2c(nnc2C(F)(F)F)C1)Cc1cc(F)c(F)cc1F | – | – | – | – | – | pKa | 8.78 |
| CNCCN1C(=O)[C@H](OC(C)=O)[C@H](c2ccc(OC)cc2)Sc2ccccc21 | – | – | – | – | – | pKa | 8.06 |
| COc1ccc([C@@H]2Sc3ccccc3N(CCN(C)C)C(=O)[C@@H]2OC(C)=O)cc1 | – | – | – | – | – | pKa | 8.2 |
| CC(C)c1nc(N(C)S(C)(=O)=O)nc(-c2ccc(F)cc2)c1/C=C/[C@@H](O)C[C@@H](O)CC(=O)O | – | – | – | Simcyp input parameter | – | pKa | 4.27 |

Excerpt of the above:
| SMILES | target or system | test | test system | setting | scale | quantity | value |
| --- | --- | --- | --- | --- | --- | --- | --- |
| Nc1cc(C(F)(F)F)c(-c2nc(N3CCOCC3)nc(N3CCOCC3)n2)cn1 | Serine/threonine-protein kinase N1 (PKN1, Homo sapiens, UniProt Q16512) | enzyme activity | – | 10 µM | baseline: untreated | remaining activity | 73% |
| O=C1CN(/N=C/c2ccc([N+](=O)[O-])o2)C(=O)N1 | – | – | – | – | – | pKa | ~7.2 |
